Published values from different studies.
Every numbered part comes from another study and shows a few of its results, in no order. Substitutions count along the parent as printed.

Study 1
Target: Histone acetyltransferase KAT6A, winged helix 1, GST fusion (KAT6A, Homo sapiens, UniProt Q92794, residues 1-85)
Technique: protein binding microarray
Molecule type: double-stranded DNA, one strand shown
Medium: in vitro
Concentration: not given
Setting: 8-mer, flanks averaged, mean of 2 arrays, mostly near background
Baseline: not given
Reading: higher = stronger binding
Target sequence (chain): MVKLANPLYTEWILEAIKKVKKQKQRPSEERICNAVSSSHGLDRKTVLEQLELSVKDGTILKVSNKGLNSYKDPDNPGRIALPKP
| Sequence | E-score |
| --- | --- |
| ATCCGCAA | 0.0643 |
| GACCTTCA | -0.01 |
| CACTTTGC | -0.102 |
| CATGTTTC | 0.0871 |
| ATCCGACA | 0.041 |
| AACTTCTG | -0.149 |
| GAAGCCGC | 0.384 |
| AGATCATC | -0.239 |
| ACAACCGG | 0.0794 |
| GGCATCGA | -0.012 |
| AATTGAGC | -0.141 |
| ACGGCGAT | 0.39 |
| GACGTAAC | -0.0952 |
| CAGATCGG | 0.0436 |
| GCCTCTCC | -0.147 |
| CCTGTCCA | -0.0856 |
| GCTGAAGA | -0.109 |
| CCAAGCCA | -0.165 |
| GGACTTAC | 0.08 |
| ACGTTTAT | -0.0851 |
| AGTTCAAT | -0.0536 |
| CGACGGGA | 0.442 |
| GGCTGGGA | -0.141 |
| ATGATGTG | -0.0824 |

Study 2
Target: TAR DNA-binding protein 43, full length, His tag (TARDBP, Homo sapiens, UniProt Q13148, residues 1-414)
Technique: RNA Bind-n-Seq
Molecule type: RNA
Medium: in vitro
Concentration: 20 nM
Setting: 6-mer, flanks averaged, single round
Added: 150 mM LiCl
Baseline: input library
Reading: higher = stronger binding
| Sequence | 6-mer enrichment (R) |
| --- | --- |
| UCCACG | 0.858 |
| AUAGCA | 0.863 |
| GGUGCG | 1.32 |
| ACGGCU | 0.867 |
| GGGAGU | 1.24 |
| UUGCCC | 1.14 |
| GCAUGC | 1.01 |
| CACGUG | 0.943 |
| GACCUU | 0.92 |
| GAUAUC | 0.819 |
| UUAAUC | 0.924 |
| UUGUCG | 1.04 |
| GGCUUG | 1.05 |
| UGGAAU | 0.981 |
| GAGAAA | 0.924 |
| UCCACC | 0.966 |
| UGGAAC | 0.964 |
| AAACAA | 0.865 |
| UAAGUC | 0.871 |
| UCCUGC | 0.9 |
| UGCAAU | 0.922 |
| UUCCGA | 0.825 |
| GAGAGC | 1 |
| AUAUUC | 0.915 |
| AUGCGA | 0.929 |

Study 3
Target: Ras GTPase-activating protein-binding protein 1, C-terminal RGG region (G3BP1, Homo sapiens, UniProt Q13283)
Sequence of UniProt Q13283 (whole entry, looked up): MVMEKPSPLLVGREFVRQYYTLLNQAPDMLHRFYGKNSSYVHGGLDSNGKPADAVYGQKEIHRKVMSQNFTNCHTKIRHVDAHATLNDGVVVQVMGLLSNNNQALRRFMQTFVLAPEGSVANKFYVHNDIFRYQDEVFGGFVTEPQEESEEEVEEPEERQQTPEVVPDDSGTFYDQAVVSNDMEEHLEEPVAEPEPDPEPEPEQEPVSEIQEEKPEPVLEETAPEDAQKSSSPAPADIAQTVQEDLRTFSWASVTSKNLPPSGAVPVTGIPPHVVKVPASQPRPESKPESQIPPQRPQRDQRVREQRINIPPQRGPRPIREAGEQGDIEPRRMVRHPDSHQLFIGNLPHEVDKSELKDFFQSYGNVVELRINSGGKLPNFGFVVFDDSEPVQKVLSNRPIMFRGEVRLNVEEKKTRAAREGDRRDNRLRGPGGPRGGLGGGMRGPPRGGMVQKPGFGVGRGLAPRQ
Technique: RNA Bind-n-Seq
Molecule type: RNA
Medium: in vitro
Concentration: 1 µM
Setting: whole 134-nt RNA, ends assumed
Added: 150 mM KCl
Baseline: input library
Reading: higher = stronger binding
Constant ends, left off below: GGGAGUUCUACAGUCCGACGAUC … UGGAAUUCUCGGGUGUCAAGG
| Sequence | log2 enrichment |
| --- | --- |
| GCAGGAAGUAAAAACAAAUGGAAAUGCUUCGGAUAGUGGCUGGGGUGGGGGUUGCUAAGGAAAGGGUGGGAUGGGAGUGGGUAAAGAGUU | 0.612 |
| CACAGACAACACGCACCCACACAGACACAGAGGGAAGGGGUUGGGAUGGGGACAGGGUGCACAGCAGGGCGCGGUAGGACCCCAGCCCCU | -0.835 |
| AGUCCUGUGCUACACAUCGUAUGUACCGAAUCGGGUUUUGGGUUUUGGGGUUUUGGGGAAAGUAUUAUGUUACGCCGUUCGGAUCUGCAC | 1.2 |
| UCAAGUCCUGUGCUACACAUCGUAUGUACCGAAUCGGCCGGGGCCGGGCCGGGGAAAGUAUUAUGUUACGCCGUUCGGAUCUGCACUUCC | -1.09 |
| AAGUCCUGUGCUACACAUCGUAUGUACCGAAUCGGGAAAGGGAAAGGGUUUUUGGGAAAGUAUUAUGUUACGCCGUUCGGAUCUGCACUU | 0.878 |
| CACAGACAACACGCACCCACACAGACACAGAGGGAAGGGGUUGGGAUGGGGACAGGGUGCACAGCUGGGCGGGGUAGGACCCCAGCCCCU | -0.377 |
| AGUCCUGUGCUACACAUCGUAUGUACCGAAUCGGGGCCCCGGGGCCCCGGGCCCCGGGAAAGUAUUAUGUUACGCCGUUCGGAUCUGCAC | -1.93 |
| AAGUCCUGUGCUACACAUCGUAUGUACCGAAUCGGGGUUUUGGGUUUUGGUUUUGGAAAGUAUUAUGUUACGCCGUUCGGAUCUGCACUU | -1.52 |
| CUGUGCUACACAUCGUAUGUACCGAAUCGGGCCCCCCCGGGCCCCCCCGGGGCCCCCCCGGAAAGUAUUAUGUUACGCCGUUCGGAUCUG | -1.76 |
| GUCCUGUGCUACACAUCGUAUGUACCGAAUCGGGCCCCCGGGGCCCCCGGGGCCCCCGGAAAGUAUUAUGUUACGCCGUUCGGAUCUGCA | -1.69 |

Study 4
Target: CCNE2, cyclin fold, Cln2 fusion (human)
Technique: yeast growth competition, sequencing
Medium: yeast
Setting: weak parent motif
Baseline: not given
Reading: higher = stronger binding
Starting sequence: SAMHD1 docking peptide (human); ASKSRVQLFKDDP
| Variant | normalised enrichment score |
| --- | --- |
| K10E | -0.126 |
| V6I | -0.402 |
| K10N | 0.157 |
| K10A | -0.0129 |
| D12K | 0.329 |
| V6R | 1.68 |
| F9A | 0.0861 |
| K3W | -0.0339 |
| L8N | -0.0397 |
| V6E | -0.212 |
| D11G | 0.623 |
| D12I | 0.526 |
| D12S | 0.32 |
| K3F | 0.0719 |
| D12W | 0.574 |
| F9E | 0.134 |
| K3R | 0.0339 |
| S4D | 0.000539 |
| F9G | -0.0508 |
| R5N | -0.468 |
| S2G | 0.125 |
| R5E | -0.195 |
| F9L | 0.39 |
| Q7F | 0.393 |
| F9M | 0.388 |
